Published values of several laboratories.
Parts stem from different laboratories: compare values within a part only.

Study 1
Target: Sal-like protein 4, full length isoform B (SALL4, Homo sapiens, UniProt Q9UJQ4-2, residues 1-616)
Method: universal PBM
Form: double-stranded DNA, one strand shown
Sample: in vitro
Tested at: not given
Notes: 8-mer, flanks averaged, mean of replicates
Reading: higher = stronger binding
Construct (chain): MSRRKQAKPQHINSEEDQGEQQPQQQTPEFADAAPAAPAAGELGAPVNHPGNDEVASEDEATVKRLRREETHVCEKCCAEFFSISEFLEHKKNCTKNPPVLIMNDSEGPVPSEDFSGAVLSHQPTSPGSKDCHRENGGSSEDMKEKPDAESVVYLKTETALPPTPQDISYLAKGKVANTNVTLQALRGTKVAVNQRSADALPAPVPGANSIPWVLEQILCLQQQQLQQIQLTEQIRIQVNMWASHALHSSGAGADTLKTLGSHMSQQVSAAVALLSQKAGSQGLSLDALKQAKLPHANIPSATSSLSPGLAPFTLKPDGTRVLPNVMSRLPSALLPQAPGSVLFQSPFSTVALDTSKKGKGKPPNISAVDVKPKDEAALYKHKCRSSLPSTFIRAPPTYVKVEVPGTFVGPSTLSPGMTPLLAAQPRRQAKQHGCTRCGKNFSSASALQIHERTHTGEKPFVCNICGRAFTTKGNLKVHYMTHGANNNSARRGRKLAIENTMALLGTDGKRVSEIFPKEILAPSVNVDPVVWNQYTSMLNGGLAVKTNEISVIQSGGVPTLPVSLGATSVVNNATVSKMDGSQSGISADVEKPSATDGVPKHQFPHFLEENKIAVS
Strand | E-score
AGAGCGTA | -0.0679
CAAGCACC | -0.208
CGATGCTA | 0.0586
GGATGATA | 0.183

Study 2
Target: Interferon regulatory factor 7, full length, phosphomimetic (IRF7, Homo sapiens, UniProt Q92985, residues 1-503, S101K/S471D/S472D/S475D/S476D/S477D/S483D/S484D/S487D)
Chain of UniProt Q92985 (whole entry, unmodified, looked up): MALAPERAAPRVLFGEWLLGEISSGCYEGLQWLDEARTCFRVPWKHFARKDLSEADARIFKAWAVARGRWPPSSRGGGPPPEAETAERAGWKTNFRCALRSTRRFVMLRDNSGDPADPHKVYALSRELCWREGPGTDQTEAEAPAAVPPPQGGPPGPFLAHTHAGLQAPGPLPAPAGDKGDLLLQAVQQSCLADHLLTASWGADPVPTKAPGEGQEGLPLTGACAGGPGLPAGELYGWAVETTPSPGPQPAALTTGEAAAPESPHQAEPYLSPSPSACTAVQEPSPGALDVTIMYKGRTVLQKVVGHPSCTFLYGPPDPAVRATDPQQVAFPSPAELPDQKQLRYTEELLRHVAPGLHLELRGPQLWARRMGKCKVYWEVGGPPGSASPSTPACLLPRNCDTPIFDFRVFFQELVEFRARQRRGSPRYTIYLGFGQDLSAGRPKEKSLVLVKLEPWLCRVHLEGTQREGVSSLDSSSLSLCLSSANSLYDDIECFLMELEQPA
Method: protein-binding microarray
Form: double-stranded DNA, one strand shown
Sample: in vitro
Tested at: 250 nM
Notes: 60-bp whole probe
With: salmon DNA 0.4 mg/ml
Relative to: random background probes
Reading: higher = stronger binding
Strand | log fluorescence [z-score]
GCCTAGCACTTCCCTCTCCCCTCTTGTGCTGTGCTAGTCTTGATTCGCTTGACGCTGCTG | 1.06
GCCTAGCACTCAATTTCAGTTTTCTTACTGTGCTAGGTCTTGATTCGCTTGACGCTGCTG | 1.52
GCCTAGCACTTAGATTTCGGGACTGTATTAGTGCTAGTCTTGATTCGCTTGACGCTGCTG | 0.681

Study 3
Target: Histone acetyltransferase KAT6A, both winged helices, GST fusion (KAT6A, Homo sapiens, UniProt Q92794, residues 1-181)
Method: protein binding microarray
Form: double-stranded DNA, one strand shown
Sample: in vitro
Tested at: not given
Notes: 8-mer, flanks averaged, mean of 2 arrays, mostly near background
Relative to: not given
Reading: higher = stronger binding
Target sequence (chain): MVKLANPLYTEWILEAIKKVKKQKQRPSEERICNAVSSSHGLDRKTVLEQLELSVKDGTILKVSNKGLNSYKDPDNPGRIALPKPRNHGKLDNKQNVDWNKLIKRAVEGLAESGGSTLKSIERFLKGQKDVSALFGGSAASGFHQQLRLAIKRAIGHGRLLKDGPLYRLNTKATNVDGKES
Strand | E-score
CCGTTGCC | 0.26
AGGAACTC | -0.0511
AAACTGCC | -0.0702
AACCTCCG | 0.006
ACTGCATG | -0.0779

Other studies, line by line
Substance | target | assay | system | conditions | how to read | quantity | value
PhoQ, residues 284 288 289 292 302 303 AGGLSV | PhoP, residues 12 14 15 18 19 VHSCL (Escherichia coli, UniProt P23836) | Sort-seq, item: YFP reporter | E. coli | PhoQ-PhoP variant library, with: 10 µM Mg2+ | relative to: high Mg2+ state, higher = stronger signaling | fold induction | 1.49
